Measured values pooled from the literature.
Compare with care: the assays were run in different laboratories. Numbers after ± are the reported error.

| SMILES | assay | system | setting | half-life [h] |
| --- | --- | --- | --- | --- |
| O=C(Nc1ccc(OC(F)(F)F)cc1)NC1CCN(C(=O)C2CC2)CC1 |  | Sprague-Dawley rat, male, whole blood | oral, 0.1 mg/kg | 6.8 |
| COc1ccc([C@@H]2CC(=O)c3c(O)cc(O[C@@H]4O[C@H](CO)[C@@H](O)[C@H](O)[C@H]4O[C@@H]4O[C@@H](C)[C@H](O)[C@@H](O)[C@H]4O)cc3O2)cc1O | LC-MS/MS | Sprague-Dawley rat, male, lean, plasma | intravenous, 4 mg/kg | 13.8 ± 7.26 |
| C=C(NC(=O)c1csc(-c2nc3c(cc2O)-c2nc(cs2)C(=O)NC(C(C)O)C(=O)NC(=C(C)OC)c2nc(cs2)C(=O)NC2c4nc(cs4)C(=O)NC(COC(=O)c4c5c6c(cccc6n4O)COC(=O)C(OC4CC(C)(O)C(N(C)C)C(C)O4)C2OC5)c2nc-3cs2)n1)C(N)=O (stereo not drawn) |  | Sprague-Dawley rat, both sexes, plasma | intravenous infusion, 6 mg/kg, multiple doses, day 1 | 4.86 |
| C=C1C[C@]2(C(=O)OC)C=C(C(=O)Nc3cccc(C(=O)Nc4ccc(Nc5nccc(-c6cccnc6)n5)c(C)c4)c3)C(=O)[C@H]1C2 |  | Wistar rat male, blood plasma | 10 µM | 0.0406 |
| Cc1nc2cccc(OCC(C)(C)C(=O)NC(C)C)c2c(N)c1C(=O)O.O=P(O)(O)O |  | male Sprague-Dawley rat, plasma | oral, 30 mg/kg | 1.34 |
| O=C(NS(=O)(=O)c1cccs1)c1cc2ccccc2n1Cc1ccc(Br)c2ccccc12 |  | Sprague-Dawley rat, male, plasma | intravenous, 2 mg/kg | 1.43 |
| Cn1cnc([N+](=O)[O-])c1Sc1ccccc1C(=O)NCCC(N)=O | LC-UV/MS | Sprague-Dawley rat, whole blood | 10 µM, 37 °C | 0.21 |
| O=C(O)/C=C\c1cc2ccoc2cc1O[C@@H]1O[C@H](CO)[C@@H](O)[C@H](O)[C@H]1O |  | rat, plasma | oral, 217 mg/kg Pc extract, dosed as Pc extract | 2.3 ± 0.7 |
| CC[C@H](C)[C@@H](C(=O)N[C@@H](CC(C)C)C(=O)N[C@@H](CO)C(=O)N[C@@H](CO)C(=O)N[C@H](C(=O)N[C@@H](CCC(=O)O)C(=O)N[C@H](C(=O)NCC(=O)N[C@@H](CO)C(=O)N[C@@H](CC(N)=O)C(=O)N[C@H](C(=O)N1C[C@H](O)C[C@H]1C(N)=O)[C@@H](C)O)C(C)C)[C@@H](C)O)N(C)C(=O)[C@H](C)NC(=O)CN(C)C(=O)[C@H](Cc1ccccc1)NC(=O)[C@H](CO)NC(=O)[C@H](CO)NC(=O)[C@H](CCCNC(=N)N)NC(=O)[C@H](CCC(N)=O)NC(=O)[C@H](CC(C)C)NC(=O)[C@H](Cc1ccccc1)NC(=O)[C@H](CCCC(=O)O)NC(=O)[C@H](C)NC(=O)[C@H](CC(C)C)NC(=O)[C@H](CCCNC(=N)N)NC(=O)[C@H](CCC(=O)O)NC(=O)[C@@H](NC(=O)[C@H](C)NC(=O)[C@@H]1CCCCNC(=O)C[C@H](NC(=O)[C@H](CCCNC(=N)N)NC(=O)CC[C@H](NC(=O)CCCCCCCCCCCCCCCCCCC(=O)O)C(=O)O)C(=O)NCC(=O)N[C@@H]([C@@H](C)O)C(=O)N[C@@H](C)C(=O)N[C@@H]([C@@H](C)O)C(=O)N1)[C@@H](C)O |  | Sprague-Dawley rat, lean male, plasma | subcutaneous, 30 nmol/kg single dose, vehicle pH 7.0 | > 30 |

Excerpt of the above:
| SMILES | assay | system | setting | half-life [h] |
| --- | --- | --- | --- | --- |
| O=C(O)/C=C\c1cc2ccoc2cc1O[C@@H]1O[C@H](CO)[C@@H](O)[C@H](O)[C@H]1O |  | rat, plasma | oral, 217 mg/kg Pc extract, dosed as Pc extract | 2.3 ± 0.7 |
